Published values collected from several papers.
A part holds a random share of what one study measured. Positions count from the first letter of the parent shown.

Study 1
Target: Histone acetyltransferase KAT6A, both winged helices, GST fusion (KAT6A, Homo sapiens, UniProt Q92794, residues 1-181)
Method: protein binding microarray
Form: double-stranded DNA, one strand shown
Matrix: in vitro
Tested at: not given
Setting: 8-mer, flanks averaged, mean of 2 arrays, mostly near background
Baseline: not given
Direction: higher = stronger binding
Target sequence (chain): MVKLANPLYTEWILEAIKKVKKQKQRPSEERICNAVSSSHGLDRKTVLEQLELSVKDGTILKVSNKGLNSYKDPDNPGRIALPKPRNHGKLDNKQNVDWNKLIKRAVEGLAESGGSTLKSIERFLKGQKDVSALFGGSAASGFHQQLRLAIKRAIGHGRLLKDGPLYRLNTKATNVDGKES
The E-score of `TACACAAA` is reported as 0.0291.
The E-score of `CCTTATCA` is reported as -0.0816.
With `TGGAAAAA` the E-score was 0.0423.
The E-score of `ATCCTTGG` is reported as -0.0502.
For `CTCACCAG`, the E-score was -0.257.
The E-score of `GGAGTAGA` is reported as -0.0767.
The E-score of `GTCGCGTA` is reported as 0.248.
For `AGGAATCC`, the E-score was -0.0401.
`AGCGGATG` has an E-score of 0.176.
`AAACTCGG` has an E-score of 0.128.
With `CTGGTACA` the E-score was -0.101.
The E-score of `AACCACTA` is reported as -0.0745.
The E-score of `AAACCTAG` is reported as -0.17.
`CGAACGAA` has an E-score of -0.0257.
The E-score of `CGCTCACA` is reported as 0.169.
`CTGCCAAA` gave an E-score of -0.0926.
For `GAATTATC`, the E-score was -0.206.
`CTCGTTAC` gave an E-score of -0.224.
`AGACGGTC` has an E-score of 0.0501.

Study 2
Target: PABPC1L2, full length, GST fusion (mouse, UniProt A0ABA7IW68)
Method: RNAcompete
Form: RNA
Matrix: in vitro
Tested at: 20 nM
Setting: 7-mer, probes averaged, single round
Baseline: mean of 7-mers
Direction: higher = stronger binding
Construct (chain): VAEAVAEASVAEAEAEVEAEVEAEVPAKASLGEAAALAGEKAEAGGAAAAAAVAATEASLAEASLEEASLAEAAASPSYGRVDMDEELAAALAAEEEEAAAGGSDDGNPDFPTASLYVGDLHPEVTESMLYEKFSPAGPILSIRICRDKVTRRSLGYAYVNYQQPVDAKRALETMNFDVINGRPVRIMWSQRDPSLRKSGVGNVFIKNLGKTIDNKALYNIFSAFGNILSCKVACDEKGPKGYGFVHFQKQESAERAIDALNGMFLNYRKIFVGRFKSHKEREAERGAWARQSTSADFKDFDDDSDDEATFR
`ACAGGCG` gave a 7-mer Z-score of 0.318.
`UGAGACG` gave a 7-mer Z-score of -0.0536.
`ACACAUA` has a 7-mer Z-score of 0.0225.
For `AGGGCCG`, the 7-mer Z-score was 0.119.
`CCUAAGA` gave a 7-mer Z-score of -0.117.
`CACGGUU` gave a 7-mer Z-score of -0.0971.
The 7-mer Z-score of `UUUUGAU` is reported as -0.117.
With `UGUUAGA` the 7-mer Z-score was -0.135.
The 7-mer Z-score of `AGCUGUC` is reported as -0.248.
With `AGCCAAA` the 7-mer Z-score was 0.764.
`UCGGAUU` gave a 7-mer Z-score of -0.139.
For `CUACGGG`, the 7-mer Z-score was 0.287.
`CCGGACG` gave a 7-mer Z-score of -0.132.
`ACUAGAC` gave a 7-mer Z-score of -0.103.
With `UGGGCAG` the 7-mer Z-score was 0.202.
For `GCGUCUG`, the 7-mer Z-score was -0.34.
The 7-mer Z-score of `CACCAUC` is reported as -0.237.
`GAGCCGC` has a 7-mer Z-score of -0.293.
`ACGCGAG` gave a 7-mer Z-score of -0.217.
`UUUUGCG` gave a 7-mer Z-score of -0.331.
The 7-mer Z-score of `UCCGGCC` is reported as -0.49.
For `AUCCACG`, the 7-mer Z-score was -0.211.
For `GGCAUGU`, the 7-mer Z-score was 0.155.
For `GUUCGCU`, the 7-mer Z-score was -0.51.
For `UCCGGGU`, the 7-mer Z-score was -0.199.

Study 3
Target: CCNA2, cyclin fold, Cln2 fusion (human)
Method: yeast growth competition, sequencing
Matrix: yeast
Setting: strong parent motif
Baseline: not given
Direction: higher = stronger binding
Parent: BRCA2 docking peptide (human); PSIKRNLLNEFDR
`N9T` — result for “normalised enrichment score”: 4.98.
Under “normalised enrichment score”, `N9M` is recorded as 5.79.
`N9K` — result for “normalised enrichment score”: 5.77.
`D12A` — result for “normalised enrichment score”: 5.54.
`D12G` — result for “normalised enrichment score”: 4.17.
`I3N`: “normalised enrichment score” 1.44.
For `F11T`, “normalised enrichment score” read 1.22.
Under “normalised enrichment score”, `S2A` is recorded as 4.59.
For `L7R`, “normalised enrichment score” read 0.474.
`K4T` — result for “normalised enrichment score”: 1.82.
Under “normalised enrichment score”, `N6K` is recorded as 4.53.
Under “normalised enrichment score”, `R5I` is recorded as 1.42.
Under “normalised enrichment score”, `S2L` is recorded as 5.83.
`D12P` — result for “normalised enrichment score”: 3.93.
Under “normalised enrichment score”, `E10L` is recorded as 2.7.
`L7N`: “normalised enrichment score” -0.88.
`L8A`: “normalised enrichment score” 4.2.
Under “normalised enrichment score”, `K4D` is recorded as 0.517.
Under “normalised enrichment score”, `N9E` is recorded as 5.66.

Study 4
Target: RNA binding protein fox-1 homolog 2, RRM domain, GST-SBP tag (RBFOX2, Homo sapiens, UniProt O43251-10, residues 100-194)
Method: RNA Bind-n-Seq
Form: RNA
Matrix: in vitro
Tested at: 365 nM
Setting: natural RNA segment, single round, ends assumed
Baseline: no-protein control
Direction: higher = stronger binding
Residues (chain): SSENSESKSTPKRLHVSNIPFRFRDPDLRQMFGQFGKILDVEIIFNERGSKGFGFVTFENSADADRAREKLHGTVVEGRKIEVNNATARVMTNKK
For `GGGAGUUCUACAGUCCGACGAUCAGUGUUUUCUUCCCUGUGCCUUAAGGGCCCUCAUCCCAGCAGCCCAUAUAGCCAGCAAAUGGAGGACUCCUAACUUCAGCACAAGUGGGUUUGGAGUGGCAGAGGCCAUAUGGAAUUCUCGGGUGCCAA`, “RBNS enrichment (R)” read 0.331.
`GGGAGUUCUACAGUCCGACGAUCGUGGGGUAAGUGCCUCCAGGAAGGCAGGCAGCCUGCCUUAGACUUGCAGCCCGGCUGUGGGAAUGAAUCAUUGGAGUAAUAAACUACAGUGGUUGAUCCACAUGUGCUCGUGGAAUUCUCGGGUGCCAA` — result for “RBNS enrichment (R)”: 0.347.
`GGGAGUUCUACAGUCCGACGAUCAACUUUCCUAGAUAAACUUUAAGGUUUCUAUACUGAGGCUUUUAUAAUGAACGCACCUCGUUAAGUAUUUAUACUUGUAACUAACCCCAGGCAGGGACCUCAGCUUUGUUUGGAAUUCUCGGGUGCCAA` — result for “RBNS enrichment (R)”: 0.492.
Under “RBNS enrichment (R)”, `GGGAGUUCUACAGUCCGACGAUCUUUGGAACAUUUAUGUAAGAUUGUCAUAUGAAAUGUAUUUGGGAACUACAUUAAACUUUUAACUAAACCCUGGCCUCUGCAUGCCCCAGGGGCCUCAGGAAGCCCCUGACUGGAAUUCUCGGGUGCCAA` is recorded as 12.9.
`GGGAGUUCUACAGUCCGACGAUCCAGCCUACAUGGUGAAUCCAGAGUGUGCCCGGUUCCACAUCACCUCUUCAUGGUCUGCUGUGCACAAACUAUAUCCGAGAGAUCCUGUCUCCCCAAAAGCCACUGCUGGGUGGAAUUCUCGGGUGCCAA` — result for “RBNS enrichment (R)”: 0.209.
`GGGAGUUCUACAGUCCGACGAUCGGGAGUCCACAACUAUGAAUGUAUUUACUUCCAACAUUUCCCAAAAUGAAAACUAUAAAUUGCAAGUAUUCUGGAAUUGGGAAAUACUUAUUUUAAAUGAGAUCAGGUAGUGGAAUUCUCGGGUGCCAA`: “RBNS enrichment (R)” 1.05.
`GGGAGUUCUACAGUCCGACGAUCGCUGUGCUUAAAAGGUUGCAUACUGAGCCAAGUAUAAUUUUUGUAAUGUGUGAAAAAGAUGCCAAUUAUUGUUACACAUCAAGCAAUCAAUAAAGAAAACUUCCGUAGUUUGGAAUUCUCGGGUGCCAA`: “RBNS enrichment (R)” 0.378.
Under “RBNS enrichment (R)”, `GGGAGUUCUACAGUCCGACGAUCACACCAGCCCCUUGGCCAGCCUGCCGCAGGCAUCUCAGGGCCAUGCAGAUCCCAGGCUGUGGAUUACGUCACUGCAGGAACUGCUUCUGAAAGGCUUUGGCCUUCCUCAGUGGAAUUCUCGGGUGCCAA` is recorded as 0.233.
`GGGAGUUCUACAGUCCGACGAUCAAGAUGACCAGCAAUGCCUGUAGAAGGCUUUGUCCGUUUUUGGCAGAAGGCCUAGGGCAUCGAAAACUCAGCCUUUUCACUCGUAGCUGAAAAUGGGACUAUUUUGGUAUUGGAAUUCUCGGGUGCCAA`: “RBNS enrichment (R)” 0.346.
`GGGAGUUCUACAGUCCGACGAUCUUGGCCAAGUCCAUGUUGUGUGCUCAGAAGUCUCUUUACCAAAGACCAGGAGCAGGAGCCAAGCAUGUCCAGUCCUCUUCUGAGACCUCUGAGGUCUCAGAAGAGAAACUUGGAAUUCUCGGGUGCCAA`: “RBNS enrichment (R)” 0.554.
Under “RBNS enrichment (R)”, `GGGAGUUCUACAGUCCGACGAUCAGAUGAGAUGGAUCAAGGUAAAAAUGACCCAUCAUCUACUUUCUCCAAAGAAAACCUAAUUUUCUCAGUGGGUGAACUCAUCAUUGCUGGAACUGAAACUACAACCAAUGUGGAAUUCUCGGGUGCCAA` is recorded as 0.301.
For `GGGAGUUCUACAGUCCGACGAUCUCCCUUCCAUCUGCCUGGUGCAGGAAGCAGGGCCGUCAUGCCAACGCGCCCAGUCCAGGAUCUGCCUCCUAUCAGGGAUCCCAACUCUGAAUUUCCUGCCACUAACAUACUGGAAUUCUCGGGUGCCAA`, “RBNS enrichment (R)” read 0.392.

Study 5
Target: Interferon regulatory factor 5, full length, phosphomimetic (IRF5, Homo sapiens, UniProt Q13568-2, residues 1-514, S451D/S453D/S456D/S462D)
Method: protein-binding microarray
Form: double-stranded DNA, one strand shown
Matrix: in vitro
Tested at: 940 nM top
Setting: 60-bp whole probe
Added: salmon DNA 0.4 mg/ml
Baseline: random background probes
Direction: higher = stronger binding
Constant ends, left off below: GCCTAGCAC … GTCTTGATTCGCTTGACGCTGCTG
For `TTCGATTTCAGTCTCGATTAGTGCTAG`, “fitted relative affinity” read 4.48 z-score.
For `TTAGAACTGGGGCATCGATTAGTGCTA`, “fitted relative affinity” read 0.0939 z-score.
`TTAGAACTGAGTATCGATAAGTGCTAG` — result for “fitted relative affinity”: 3.4 z-score.
`TTAGGTATCCCACTGCTTTAGTGCTAG`: “fitted relative affinity” 0.294 z-score.
`TTAGGTATCGGACTTGGTTAGTGCTAG`: “fitted relative affinity” 2.8 z-score.
Under “fitted relative affinity”, `GACGGTATCCTACTGCTAACGTGCTAG` is recorded as -0.354 z-score.
`TCATCTTTGCAGATAAAACTGTGCTAG`: “fitted relative affinity” -0.0171 z-score.
`TTAGGTTTCAACTTTCGGTTAGTGCTA` — result for “fitted relative affinity”: 4.41 z-score.
`GATGTTTTAGGTCCCTTTTCGTGCTAG`: “fitted relative affinity” 0.477 z-score.
`TCACAATTCTCTTTTCAACTGTGCTAG`: “fitted relative affinity” 1.12 z-score.
`TTAAGTTTCGACTATCGGTTAGTGCTA` — result for “fitted relative affinity”: 9.63 z-score.
`GACGATATCGGGTTTCGAGACGTGCTA`: “fitted relative affinity” 2.09 z-score.
Under “fitted relative affinity”, `TTAGGTTTCGATTCCGGTTAGTGCTAG` is recorded as 13.4 z-score.
`TTAGGTATCGGACGGGGTTAGTGCTAG` — result for “fitted relative affinity”: 4.14 z-score.
For `GACGGTTACGACTATCGGGACGTGCTA`, “fitted relative affinity” read 0.0109 z-score.
For `ATATTTCCCAGAACTGGAGTGGTGCTA`, “fitted relative affinity” read 0.0501 z-score.
`TTCATTTTGTTCATCATTGCGTGCTAG`: “fitted relative affinity” 0.236 z-score.
`TTAGGTATCGGACTGGGTCAGTGCTAG` — result for “fitted relative affinity”: 3.39 z-score.
`GACGGTAGCGGTTTCGGGACGTGCTAG`: “fitted relative affinity” 3.28 z-score.
Under “fitted relative affinity”, `TTTTCACTTTCTTTAACTCAGTGCTAG` is recorded as 3.49 z-score.
`TTTACTTTCTATGTCTGTTTGTGCTAG` — result for “fitted relative affinity”: 3.69 z-score.
Under “fitted relative affinity”, `TTCGGTATCGGTATCGGTTAGTGCTAG` is recorded as 12 z-score.
For `TTAGGTATCGTACTGCTTTAGTGCTAG`, “fitted relative affinity” read 2.6 z-score.
`TCATACTTCCCACTGGTACTGTGCTAG` — result for “fitted relative affinity”: 0.472 z-score.
`TTATATTTCAGTTTCGATTAGTGCTAG` — result for “fitted relative affinity”: 10 z-score.

Some of these lines once more (study 2):
For `CUACGGG`, the 7-mer Z-score was 0.287.
`CCGGACG` gave a 7-mer Z-score of -0.132.
`ACUAGAC` gave a 7-mer Z-score of -0.103.
With `UGGGCAG` the 7-mer Z-score was 0.202.
For `GCGUCUG`, the 7-mer Z-score was -0.34.
The 7-mer Z-score of `CACCAUC` is reported as -0.237.
`GAGCCGC` has a 7-mer Z-score of -0.293.
`ACGCGAG` gave a 7-mer Z-score of -0.217.
`UUUUGCG` gave a 7-mer Z-score of -0.331.
The 7-mer Z-score of `UCCGGCC` is reported as -0.49.
For `AUCCACG`, the 7-mer Z-score was -0.211.
For `GGCAUGU`, the 7-mer Z-score was 0.155.
